Measured values pooled from the literature.
Each line is one published result; not all experiments were run side by side. “And” joins repeats or separate records; there may be more than shown. In brackets after ≈: the same amount, converted by molar mass.
Organism: Staphylococcus aureus

CC[C@H](C)[C@H](NC(=O)[C@H](CCCCN)NC(=O)[C@H](CCCCN)NC(=O)[C@H](Cc1ccccc1)NC(=O)[C@@H](NC(=O)[C@@H](NC(=O)[C@H](CCCNC(=N)N)NC(=O)[C@H](Cc1ccccc1)NC(=O)[C@@H](NC(=O)[C@H](CCCCN)NC(=O)[C@H](CCCCN)NC(=O)[C@@H](N)CCSC)[C@@H](C)CC)C(C)C)[C@@H](C)CC)C(=O)N[C@@H](CC(C)C)C(=O)N[C@@H](CCCCN)C(=O)N[C@@H](CCCNC(=N)N)C(=O)N[C@@H](CC(C)C)C(=O)N[C@H](C(=O)N[C@H](C(=O)O)C(C)C)[C@@H](C)CC — MIC (broth microdilution; MRSA GU-1; 16 to 18 h): 4 µg/mL (≈ 1.76 µM)
CC(=O)NC[C@H]1CN(c2ccc(N3CCOCC3)c(F)c2)C(=O)O1 — MIC (MRSA strain 6): 0.5 µg/mL (≈ 1.48 µM)
Cc1c2c(nn1C)CSCc1cc(n(C)n1)CSc1cc(c3ccccc3c1)OCCCc1c(C(=O)O)n(C)c3c-2c(Cl)ccc13 — log2 fold change (label-free quantitative proteomics, refers to: SAOUHSC_00659 protein; SA113; concentration not given; reference: untreated control): 3.96
CC[C@H](C)[C@H](NC(=O)[C@H](C)NC(=O)[C@H](CCCCN)NC(=O)[C@H](CC(C)C)NC(=O)[C@H](C)NC(=O)[C@@H](NC(=O)[C@H](Cc1c[nH]cn1)NC(=O)[C@H](CC(C)C)NC(=O)[C@@H](NC(=O)[C@@H](NC(=O)[C@H](CCCCN)NC(=O)[C@H](C)NC(=O)[C@H](C)NC(=O)[C@H](CO)NC(=O)[C@H](CCCCN)NC(=O)[C@H](Cc1ccccc1)NC(=O)[C@@H](NC(=O)[C@H](CCCCN)NC(=O)[C@H](CC(C)C)NC(=O)[C@H](Cc1ccccc1)NC(=O)[C@H](CO)NC(=O)[C@H](CCCCN)NC(=O)[C@H](Cc1c[nH]c2ccccc12)NC(=O)[C@H](CCCCN)NC(C)=O)[C@@H](C)O)[C@@H](C)O)C(C)C)[C@@H](C)O)C(=O)N[C@@H](CO)C(=O)N[C@@H](CO)C(N)=O — MIC50 (ATCC 29213): 8 µg/mL (≈ 2.73 µM)
CO/N=C(\C(=O)N[C@@H]1C(=O)N2C(C(=O)O)=C(CSC(=O)c3ccco3)CS[C@H]12)c1csc(N)n1 — MBC (CAAS-2019-CAAS-2019-13 clinical drug-resistant isolate, 25% plasma): 64 µg/mL
CC(C)C[C@H](NC(=O)CNC(=O)CNC(=O)CNC(=O)[C@H](Cc1ccc(O)cc1)NC(=O)[C@H](CC(C)C)NC(=O)[C@@H](NC(=O)CNC(=O)[C@H](Cc1ccc(O)cc1)NC(=O)[C@H](CCCCN)NC(=O)[C@H](CC(N)=O)NC(=O)[C@@H](NC(=O)[C@H](CCCCN)NC(=O)[C@H](Cc1c[nH]c2ccccc12)NC(=O)CN)[C@@H](C)O)[C@@H](C)O)C(=O)N[C@@H](CCCCN)C(=O)N[C@@H](CCCCN)C(=O)N[C@@H](CC(C)C)C(=O)N[C@@H](CC(C)C)C(=O)N[C@@H](CC(C)C)C(=O)N[C@@H](CC(C)C)C(=O)N[C@@H](CC(C)C)C(=O)N[C@@H](CCCCN)C(=O)N[C@@H](CCCCN)C(=O)N[C@@H](CC(C)C)C(=O)NCC(=O)O — MIC (USA300; together with: 150 mM NaCl): 32 µg/mL (≈ 11.2 µM)
OB(O)c1csc2ccccc12 — growth (OD600; USA300 fphE::Tn transposon mutant; 10 µM; reference: wild type): 75.8% and 59.7% and 69.7% and 81.3% and 54% and 52%
CN[C@H](CC(C)C)C(=O)N[C@H]1C(=O)N[C@@H](CC(N)=O)C(=O)N[C@H]2C(=O)N[C@H]3C(=O)N[C@H](C(=O)N[C@H](C(=O)O)c4cc(O)cc(O)c4-c4cc3ccc4O)[C@H](O)c3ccc(c(Cl)c3)Oc3cc2cc(c3O[C@@H]2O[C@H](CO)[C@@H](O)[C@H](O)[C@H]2O[C@H]2C[C@](C)(N)[C@H](O)[C@H](C)O2)Oc2ccc(cc2Cl)[C@H]1O — MBC (CAAS-2019-CAAS-2019-10 clinical blaZ-resistant isolate, PBS): 4 µg/mL (≈ 2.76 µM)
C=CC[C@@H]1c2ccc(OC)c(OC)c2CN2CCc3cc4c(cc3[C@H]12)OCO4 — relative wound size (P2rx7 A312V/A312V mice, skin wound infection; dose not given, day 4; reference: day 0): 0.99 and 0.74 and 0.69 and 0.85 and 1.27

Excerpt of the above:
C=CC[C@@H]1c2ccc(OC)c(OC)c2CN2CCc3cc4c(cc3[C@H]12)OCO4 — relative wound size (P2rx7 A312V/A312V mice, skin wound infection; dose not given, day 4; reference: day 0): 0.99 and 0.74 and 0.69 and 0.85 and 1.27
